Results from different studies.
Compare with care: the assays were run in different laboratories. Numbers after ± are the reported error. The star is where a group is joined.
B1: MIF4GD E200A (Homo sapiens, UniProt A9UHW6); sequence looked up; chain MGEPSREEYKIQSFDAETQQLLKTALKDPGAVDLEKVANVIVDHSLQDCVFSKEAGRMCYAIIQAESKQAGQSVFRRGLLNRLQQEYQAREQLRARSLQGWVCYVTFICNIFDYLRVNNMPMMALVNPVYDCLFRLAQPDSLSKEEEVDCLVLQLHRVGEQLEKMNGQRMDELFVLIRDGFLLPTGLSSLAQLLLLEIIAFRAAGWKTTPAAHKYYYSEVSD
B2: TJP1 PDZ3-SH3-GuK; chain SMKLVKFRKGDSVGLRLAGGNDVGIFVAGVLEDSPAAKEGLEEGDQILRVNNVDFTNIIREEAVLFLLDLPKGEEVTILAQKKKDVYRRIVESDVGDSFYIRTHFEYEKESPYGLSFNKGEVFRVVDTLYNGKLGSWLAIRIGKNHKEVERGIIPNKNRAEQLASVQYTLPKTAGGDRADFWRFRGLRSSKRNLRKSREDLSAQPVQTKFPAYERVVLREAGFLRPVTIFGPIADVAREKLAREEPDIYQIAKSEPRDAGTDQRSSGIIRLHTIKQIIDQDKHALLDVTPNAVDRLNYAQWYPIVVFLNPDSKQGVKTMRMRLCPESRKSARKLYERSHKLRKNNHHLFTTTINLNSMN
B3: Sas-4 606-901 (Drosophila melanogaster, UniProt Q9VI72); sequence looked up; chain RNIARLAPKVLPSATMSDILDENGRRTQSLDGTAGKPAKQREAQNRRQSSGSAQVRSRSRSLSRNKKTPYALDESYASSSSVESEEVQPPVTAPKAATPPPAANSSSDFKREITNADGSKDIWYPNGNLKKISADGMNLRMLYFNKDIKETNIREGTVKYYYAETNTWHTSYLDGLEILEFPNGQTEHRRKDGTVEIHFPNNSIKIVDPSDTEKLEEWRYADGTHLVQLRNGDKILNLPNGQKEIHTKLNKRREYPDGTVKLVYPDGSQETRYSNGRVRLKDKDGKLIMDTDYAKY
B4: RGS8 GST fusion (UniProt P49804); sequence looked up; chain MAALLMPRRNKGMRTRLGCLSHKSDSCSDFTAILPDKPNRALKRLSTEEATRWADSFDVLLSHKYGVAAFRAFLKTEFSEENLEFWLACEEFKKTRSTAKLVTKAHRIFEEFVDVQAPREVNIDFQTREATRKNMQEPSLTCFDQAQGKVHSLMEKDSYPRFLRSKMYLDLLSQSQRRLS
B5: UGT1A9 (Homo sapiens, UniProt O60656); chain GKLLVVPMDGSHWFTMRSVVEKLILRGHEVVVVMPEVSWQLGRSLNCTVKTYSTSYTLEDLDREFKAFAHAQWKAQVRSIYSLLMGSYNDIFDLFFSNCRSLFKDKKLVEYLKESSFDAVFLDPFDNCGLIVAKYFSLPSVVFARGILCHYLEEGAQCPAPLSYVPRILLGFSDAMTFKERVRNHIMHLEEHLLCHRFFKNALEIASEILQTPVTEYDLYSHTSIWLLRTDFVLDYPKPVMPNMIFIGGINCHQGKPLPMEFEAYINASGEHGIVVFSLGSMVSEIPEKKAMAIADALGKIPQTVLWRYTGTRPSNLANNTILVKWLPQNDLLGHPMTRAFITHAGSHGVYESICNGVPMVMMPLFGDQMDNAKRMETKGAGVTLNVLEMTSEDLENALKAVINDKSYKENIMRLSSLHKDRPVEPLDLAVFWVEFVMRHKGAPHLRPAAHDLTWYQYHSLDVIGFLLAVVLTVAFITFKCCAYGYRKCLGKKGRVKKAHKSKTH
B6: dinB (Escherichia coli, UniProt Q47155); sequence looked up; chain MRKIIHVDMDCFFAAVEMRDNPALRDIPIAIGGSRERRGVISTANYPARKFGVRSAMPTGMALKLCPHLTLLPGRFDAYKEASNHIREIFSRYTSRIEPLSLDEAYLDVTDSVHCHGSATLIAQEIRQTIFNELQLTASAGVAPVKFLAKIASDMNKPNGQFVITPAEVPAFLQTLPLAKIPGVGKVSAAKLEAMGLRTCGDVQKCDLVMLLKRFGKFGRILWERSQGIDERDVNSERLRKSVGVERTMAEDIHHWSECEAIIERLYPELERRLAKVKPDLLIARQGVKLKFDDFQQTTQEHVWPRLNKADLIATARKTWDERRGGRGVRLVGLHVTLLDPQMERQLVLGL
B7: CSF1 33-496 (Homo sapiens, UniProt P09603); sequence looked up; chain EEVSEYCSHMIGSGHLQSLQRLIDSQMETSCQITFEFVDQEQLKDPVCYLKKAFLLVQDIMEDTMRFRDNTPNAIAIVQLQELSLRLKSCFTKDYEEHDKACVRTFYETPLQLLEKVKNVFNETKNLLDKDWNIFSKNCNNSFAECSSQDVVTKPDCNCLYPKAIPSSDPASVSPHQPLAPSMAPVAGLTWEDSEGTEGSSLLPGEQPLHTVDPGSAKQRPPRSTCQSFEPPETPVVKDSTIGGSPQPRPSVGAFNPGMEDILDSAMGTNWVPEEASGEASEIPVPQGTELSPSRPGGGSMQTEPARPSNFLSASSPLPASAKGQQPADVTGTALPRVGPVRPTGQDWNHTPQKTDHPSALLRDPPEPGSPRISSLRPQGLSNPSTLSAQPQLSRSHSSGSVLPLGELEGRRSTRDRRSPAEPEGGPASEGAARPLPRFNSVPLTDTGHERQSEGSFSPQLQES
B8: RAVER1 59-130 (Homo sapiens, UniProt Q8IY67); sequence looked up; chain RKILIRGLPGDVTNQEVHDLLSDYELKYCFVDKYKGTAFVTLLNGEQAEAAINAFHQSRLRERELSVQLQPT
Sequence of UniProt P59215 (whole entry, looked up): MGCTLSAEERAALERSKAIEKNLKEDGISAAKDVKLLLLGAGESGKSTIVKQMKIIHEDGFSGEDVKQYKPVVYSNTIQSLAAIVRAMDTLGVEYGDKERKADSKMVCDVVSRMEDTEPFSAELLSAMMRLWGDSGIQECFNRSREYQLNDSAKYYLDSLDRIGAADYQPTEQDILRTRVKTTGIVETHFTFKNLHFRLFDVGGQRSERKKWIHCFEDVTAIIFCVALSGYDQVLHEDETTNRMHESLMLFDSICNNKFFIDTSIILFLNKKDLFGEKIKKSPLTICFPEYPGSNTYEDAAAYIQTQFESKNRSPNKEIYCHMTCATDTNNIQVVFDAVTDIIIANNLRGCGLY
Sequence of UniProt P04775 (whole entry, unmodified, looked up): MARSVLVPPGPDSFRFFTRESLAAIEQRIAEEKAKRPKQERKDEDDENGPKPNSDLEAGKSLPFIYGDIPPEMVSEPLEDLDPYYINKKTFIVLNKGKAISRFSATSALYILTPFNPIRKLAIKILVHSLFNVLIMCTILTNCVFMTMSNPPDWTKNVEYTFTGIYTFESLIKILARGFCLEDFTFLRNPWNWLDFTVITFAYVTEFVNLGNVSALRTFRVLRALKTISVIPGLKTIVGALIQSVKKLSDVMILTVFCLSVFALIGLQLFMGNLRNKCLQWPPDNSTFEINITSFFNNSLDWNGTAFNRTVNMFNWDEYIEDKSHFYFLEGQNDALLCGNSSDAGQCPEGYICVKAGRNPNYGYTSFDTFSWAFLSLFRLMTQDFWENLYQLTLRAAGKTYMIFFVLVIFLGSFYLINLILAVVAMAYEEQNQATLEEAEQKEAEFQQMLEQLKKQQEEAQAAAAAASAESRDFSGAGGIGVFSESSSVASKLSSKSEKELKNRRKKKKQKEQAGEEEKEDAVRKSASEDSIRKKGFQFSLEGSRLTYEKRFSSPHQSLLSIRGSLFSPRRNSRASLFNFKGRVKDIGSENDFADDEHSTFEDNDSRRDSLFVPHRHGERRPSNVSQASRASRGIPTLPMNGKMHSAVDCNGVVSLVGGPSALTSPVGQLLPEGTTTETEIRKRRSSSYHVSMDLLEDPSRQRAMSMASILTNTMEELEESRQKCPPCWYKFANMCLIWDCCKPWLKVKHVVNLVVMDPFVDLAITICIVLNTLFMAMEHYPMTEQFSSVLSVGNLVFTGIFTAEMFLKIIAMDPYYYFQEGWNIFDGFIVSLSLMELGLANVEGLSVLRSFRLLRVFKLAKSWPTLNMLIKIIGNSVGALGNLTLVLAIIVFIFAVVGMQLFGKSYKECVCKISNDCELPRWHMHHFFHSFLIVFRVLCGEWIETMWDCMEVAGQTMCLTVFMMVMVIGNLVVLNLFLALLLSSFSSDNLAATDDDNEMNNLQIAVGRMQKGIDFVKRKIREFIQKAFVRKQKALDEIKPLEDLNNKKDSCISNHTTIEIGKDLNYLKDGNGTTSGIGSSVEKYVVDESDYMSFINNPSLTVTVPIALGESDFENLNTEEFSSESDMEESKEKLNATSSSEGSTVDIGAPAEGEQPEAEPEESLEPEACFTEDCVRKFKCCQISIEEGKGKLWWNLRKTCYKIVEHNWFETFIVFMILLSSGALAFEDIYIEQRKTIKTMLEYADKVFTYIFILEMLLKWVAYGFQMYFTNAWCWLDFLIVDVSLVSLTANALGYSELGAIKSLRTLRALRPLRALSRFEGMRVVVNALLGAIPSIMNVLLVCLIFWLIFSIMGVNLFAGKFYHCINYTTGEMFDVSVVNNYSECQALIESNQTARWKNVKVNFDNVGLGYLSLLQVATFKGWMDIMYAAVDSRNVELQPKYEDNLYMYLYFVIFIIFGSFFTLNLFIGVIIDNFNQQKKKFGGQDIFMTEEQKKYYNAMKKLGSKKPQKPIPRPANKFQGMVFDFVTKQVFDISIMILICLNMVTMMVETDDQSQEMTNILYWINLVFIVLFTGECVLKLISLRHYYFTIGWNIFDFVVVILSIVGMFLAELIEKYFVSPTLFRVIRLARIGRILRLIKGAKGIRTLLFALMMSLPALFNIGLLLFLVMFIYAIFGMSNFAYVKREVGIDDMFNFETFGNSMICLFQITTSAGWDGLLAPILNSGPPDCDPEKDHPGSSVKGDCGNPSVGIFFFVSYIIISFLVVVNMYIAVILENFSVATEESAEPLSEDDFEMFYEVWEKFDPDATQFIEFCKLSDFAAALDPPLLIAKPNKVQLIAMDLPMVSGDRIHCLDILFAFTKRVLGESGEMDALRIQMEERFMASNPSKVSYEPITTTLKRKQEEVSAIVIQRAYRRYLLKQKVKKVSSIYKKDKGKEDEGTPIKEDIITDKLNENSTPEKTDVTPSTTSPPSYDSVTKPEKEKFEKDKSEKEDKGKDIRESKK
Sequence of UniProt P07333 (whole entry, looked up): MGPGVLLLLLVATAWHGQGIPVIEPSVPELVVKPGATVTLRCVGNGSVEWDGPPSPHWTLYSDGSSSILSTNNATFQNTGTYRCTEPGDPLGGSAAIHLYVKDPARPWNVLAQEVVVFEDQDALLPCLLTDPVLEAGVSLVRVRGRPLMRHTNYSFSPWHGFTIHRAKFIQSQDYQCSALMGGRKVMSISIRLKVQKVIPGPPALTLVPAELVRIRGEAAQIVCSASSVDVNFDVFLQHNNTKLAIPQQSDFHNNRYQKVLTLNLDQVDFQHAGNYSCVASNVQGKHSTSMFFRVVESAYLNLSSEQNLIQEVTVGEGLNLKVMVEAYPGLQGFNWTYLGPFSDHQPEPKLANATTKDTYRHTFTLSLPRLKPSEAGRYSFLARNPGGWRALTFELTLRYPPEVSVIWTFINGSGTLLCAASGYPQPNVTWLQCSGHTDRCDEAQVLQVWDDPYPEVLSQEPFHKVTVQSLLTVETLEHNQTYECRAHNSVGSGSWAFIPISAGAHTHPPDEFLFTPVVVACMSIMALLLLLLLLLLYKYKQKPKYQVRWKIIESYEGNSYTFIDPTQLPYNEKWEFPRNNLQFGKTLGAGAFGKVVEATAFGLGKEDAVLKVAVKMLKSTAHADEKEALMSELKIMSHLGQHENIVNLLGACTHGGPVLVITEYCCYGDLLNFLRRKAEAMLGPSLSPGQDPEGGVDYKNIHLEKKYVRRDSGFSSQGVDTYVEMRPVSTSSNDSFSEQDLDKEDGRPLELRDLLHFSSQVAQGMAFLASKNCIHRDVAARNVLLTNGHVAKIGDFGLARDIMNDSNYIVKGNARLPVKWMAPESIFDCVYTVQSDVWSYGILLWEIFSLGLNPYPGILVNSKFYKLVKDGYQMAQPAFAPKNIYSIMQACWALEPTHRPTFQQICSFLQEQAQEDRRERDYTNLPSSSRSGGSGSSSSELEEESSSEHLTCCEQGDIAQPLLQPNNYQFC
Sequence of UniProt Q16625 (whole entry, unmodified, looked up): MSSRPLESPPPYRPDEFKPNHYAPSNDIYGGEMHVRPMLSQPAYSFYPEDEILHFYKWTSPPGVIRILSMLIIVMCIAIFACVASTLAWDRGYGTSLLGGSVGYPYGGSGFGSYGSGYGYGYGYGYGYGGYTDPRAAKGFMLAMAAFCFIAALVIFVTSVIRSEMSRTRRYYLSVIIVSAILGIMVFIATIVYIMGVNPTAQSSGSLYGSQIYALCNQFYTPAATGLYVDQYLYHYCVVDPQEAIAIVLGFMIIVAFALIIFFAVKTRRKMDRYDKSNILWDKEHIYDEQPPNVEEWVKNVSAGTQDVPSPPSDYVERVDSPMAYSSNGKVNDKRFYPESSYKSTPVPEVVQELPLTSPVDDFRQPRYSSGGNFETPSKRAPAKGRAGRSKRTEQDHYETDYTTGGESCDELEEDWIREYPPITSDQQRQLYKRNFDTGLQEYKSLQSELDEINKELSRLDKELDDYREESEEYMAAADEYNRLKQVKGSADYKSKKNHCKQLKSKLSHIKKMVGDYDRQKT
Sequence of UniProt Q99828 (whole entry, looked up): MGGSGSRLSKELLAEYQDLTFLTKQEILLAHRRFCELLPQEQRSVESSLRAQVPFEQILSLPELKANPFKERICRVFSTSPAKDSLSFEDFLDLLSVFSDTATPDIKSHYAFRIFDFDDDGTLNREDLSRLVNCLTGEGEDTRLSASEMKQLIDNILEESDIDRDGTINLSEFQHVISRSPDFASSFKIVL
Sequence of UniProt Q14493 (whole entry, looked up): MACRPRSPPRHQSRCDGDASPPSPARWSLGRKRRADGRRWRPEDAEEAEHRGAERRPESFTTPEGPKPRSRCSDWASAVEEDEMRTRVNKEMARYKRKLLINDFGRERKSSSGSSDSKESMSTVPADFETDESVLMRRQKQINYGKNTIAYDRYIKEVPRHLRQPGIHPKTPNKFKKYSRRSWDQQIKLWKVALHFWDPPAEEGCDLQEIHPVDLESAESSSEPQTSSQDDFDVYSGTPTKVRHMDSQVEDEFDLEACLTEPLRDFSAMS
Sequence of UniProt P04631 (whole entry, looked up): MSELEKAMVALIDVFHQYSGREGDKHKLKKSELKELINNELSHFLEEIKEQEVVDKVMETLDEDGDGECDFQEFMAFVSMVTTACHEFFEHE
Sequence of UniProt P10415 (whole entry, looked up): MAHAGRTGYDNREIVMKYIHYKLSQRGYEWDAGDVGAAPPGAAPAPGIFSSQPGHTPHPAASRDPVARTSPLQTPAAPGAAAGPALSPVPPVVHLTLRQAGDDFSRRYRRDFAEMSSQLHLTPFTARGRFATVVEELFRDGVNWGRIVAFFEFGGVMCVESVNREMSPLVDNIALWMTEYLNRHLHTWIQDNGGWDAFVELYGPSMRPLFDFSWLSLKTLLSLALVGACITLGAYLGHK
Sequence of UniProt P0A988 (whole entry, looked up): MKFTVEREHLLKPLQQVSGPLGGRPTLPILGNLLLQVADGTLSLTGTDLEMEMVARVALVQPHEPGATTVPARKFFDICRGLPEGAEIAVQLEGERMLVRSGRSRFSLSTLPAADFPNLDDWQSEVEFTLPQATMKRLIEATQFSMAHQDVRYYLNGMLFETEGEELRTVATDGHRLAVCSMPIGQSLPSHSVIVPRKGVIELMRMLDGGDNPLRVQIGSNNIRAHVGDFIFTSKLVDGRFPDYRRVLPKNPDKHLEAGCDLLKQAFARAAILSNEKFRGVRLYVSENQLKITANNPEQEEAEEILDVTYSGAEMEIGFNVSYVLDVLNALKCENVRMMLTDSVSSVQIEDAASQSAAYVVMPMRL

Molecule	target or system	assay	test system	setting	measurement	result
B1 (MIF4GD E200A)	SLBP, phosphorylated, multiple sites (Homo sapiens, UniProt Q14493)	SPR	–	pH 7.4, 25 °C, NaCl 150 mM	Kd	66 ± 20 nM
CDKN1A/WRN p21 peptide with WRN PIP-box, C-terminal amide (Homo sapiens)	PCNA (Homo sapiens, UniProt P12004)	SPR	–	–	Kd	1150 nM
SKTRGNAKVTGRWK (TNNT2 275-288 K280N (Homo sapiens, UniProt P45379-6); sequence looked up)	TPM1 (Oryctolagus cuniculus, UniProt P58772)	SPR	peptide	pH 7.0, KCl 0.1 M	Kd	5290 nM
DIIRNIARHLAQVGDSMDRS (BID BH3 peptide, 20-mer (Homo sapiens))	BCL2L1 1-200 (Homo sapiens, UniProt Q07817-1)	ITC	peptide	pH 8.0, 25 °C, one-site model	Kd	790 nM
LHNHYT	–	–	peptide, human polyclonal IgM RF ABR	concentration not given, 5 µg/mL mAb II-481 coated, together with: RF at 50% max binding concentration	inhibition	0%
ARTKQTARKS (histone H3 2-11 (UniProt P68431); acetylated K9; sequence looked up)	MLLT1 1-148 (Homo sapiens, UniProt Q03111)	ITC	peptide	pH 7.5, 15 °C, NaCl 500 mM	Kd	32200 nM
B2 (TJP1 PDZ3-SH3-GuK)	OCLN 383-522 S408A, fluorescent label (Homo sapiens, UniProt Q16625)	MST	–	–	Kd	3000 ± 1100 nM
B3 (Sas-4 606-901)	ana2, Plk4 phosphorylated (Drosophila melanogaster, UniProt Q9XZ31)	BLI	–	approximate, prephosphorylated, single experiment	Kd	7 nM
B4 (RGS8 GST fusion)	Gnao1, AlexaFluor 532 label (Rattus norvegicus, UniProt P59215)	flow cytometry	–	pH 8.0, together with: GDP-AlF4-	Kd	24 nM
DGGTMENLSRRLQVTGDLFDIMSGQT (BECN1 105-130 K117Q (Homo sapiens, UniProt Q14457); sequence looked up)	BCL2 1-218 (Homo sapiens, UniProt P10415)	ITC	peptide	pH 7.5, 25 °C, NaCl 150 mM, independent binding model	Kd	24500 ± 6000 nM
SQSVLYS	–	–	peptide, human polyclonal IgM RF WEAK	concentration not given, 5 µg/mL mAb II-481 coated, together with: RF at 50% max binding concentration	inhibition	0%
EDGGSFWYGAAKALYG (designed peptide)	CIB1 (Homo sapiens, UniProt Q99828)	ITC	peptide	25 °C, together with: CaCl2 0.1 mM	Kd	1120 nM
B5 (UGT1A9)	O=C1OC[C@H](Cc2cccc(O)c2)[C@H]1Cc1cccc(O)c1	steady-state kinetics	–	pH 7.4, 37 °C	Vmax/Km	92 µL/min/mg
B6 (dinB)	dnaN 1-366 (Escherichia coli, UniProt P0A988)	SPR	–	pH 7.4, NaCl 150 mM	Kd	465 nM
{TAMRA}-QINQVRPKLPLLKILHAAGAQ-NH2 (MDM4 residues 23-43 (Homo sapiens); SMILES CC[C@H](C)[C@H](NC(=O)[C@H](CCC(N)=O)NC(=O)c1ccc(-c2c3ccc(=[N+](C)C)cc-3oc3cc(N(C)C)ccc23)c(C(=O)[O-])c1)C(=O)N[C@@H](CC(N)=O)C(=O)N[C@@H](CCC(N)=O)C(=O)N[C@H](C(=O)N[C@@H](CCCNC(=N)N)C(=O)N1CCC[C@H]1C(=O)N[C@@H](CCCCN)C(=O)N[C@@H](CC(C)C)C(=O)N1CCC[C@H]1C(=O)N[C@@H](CC(C)C)C(=O)N[C@@H](CC(C)C)C(=O)N[C@@H](CCCCN)C(=O)N[C@H](C(=O)N[C@@H](CC(C)C)C(=O)N[C@@H](Cc1c[nH]cn1)C(=O)N[C@@H](C)C(=O)N[C@@H](C)C(=O)NCC(=O)N[C@@H](C)C(=O)N[C@@H](CCC(N)=O)C(N)=O)[C@@H](C)CC)C(C)C; N-terminal TAMRA; C-terminal amide; TAMRA = 5-carboxytetramethylrhodamine, CN(C)c1ccc2c(-c3ccc(C(=O)*)cc3C(=O)[O-])c3ccc(=[N+](C)C)cc-3oc2c1)	S100b (Rattus norvegicus, UniProt P04631)	fluorescence polarisation	peptide	37 °C, together with: CaCl2 10 mM	Kd	3.08 ± 0.39 nM
B7 (CSF1 33-496)	CSF1R Fc fusion D1-D5 20-512 (Homo sapiens, UniProt P07333)	SPR	–	pH 7.4, NaCl 0.15 M	Kd	3.8 nM
ANK2 fragment (Homo sapiens)	SCN2A 1080-1203 E1111A, CK2 phosphorylated (UniProt P04775)	SPR	–	pH 7.4, 25 °C, NaCl 150 mM	Kd	24 nM
B8 (RAVER1 59-130)	VCL 879-1066 (Homo sapiens, UniProt P18206-2)	ITC	–	pH 8, 23 °C, NaCl 150 mM	Kd	22100 nM
